Measurements pooled from the literature.
Numbered parts are unrelated; each lists some results of a single study.
Sequence of UniProt P00519 (whole entry, unmodified, looked up): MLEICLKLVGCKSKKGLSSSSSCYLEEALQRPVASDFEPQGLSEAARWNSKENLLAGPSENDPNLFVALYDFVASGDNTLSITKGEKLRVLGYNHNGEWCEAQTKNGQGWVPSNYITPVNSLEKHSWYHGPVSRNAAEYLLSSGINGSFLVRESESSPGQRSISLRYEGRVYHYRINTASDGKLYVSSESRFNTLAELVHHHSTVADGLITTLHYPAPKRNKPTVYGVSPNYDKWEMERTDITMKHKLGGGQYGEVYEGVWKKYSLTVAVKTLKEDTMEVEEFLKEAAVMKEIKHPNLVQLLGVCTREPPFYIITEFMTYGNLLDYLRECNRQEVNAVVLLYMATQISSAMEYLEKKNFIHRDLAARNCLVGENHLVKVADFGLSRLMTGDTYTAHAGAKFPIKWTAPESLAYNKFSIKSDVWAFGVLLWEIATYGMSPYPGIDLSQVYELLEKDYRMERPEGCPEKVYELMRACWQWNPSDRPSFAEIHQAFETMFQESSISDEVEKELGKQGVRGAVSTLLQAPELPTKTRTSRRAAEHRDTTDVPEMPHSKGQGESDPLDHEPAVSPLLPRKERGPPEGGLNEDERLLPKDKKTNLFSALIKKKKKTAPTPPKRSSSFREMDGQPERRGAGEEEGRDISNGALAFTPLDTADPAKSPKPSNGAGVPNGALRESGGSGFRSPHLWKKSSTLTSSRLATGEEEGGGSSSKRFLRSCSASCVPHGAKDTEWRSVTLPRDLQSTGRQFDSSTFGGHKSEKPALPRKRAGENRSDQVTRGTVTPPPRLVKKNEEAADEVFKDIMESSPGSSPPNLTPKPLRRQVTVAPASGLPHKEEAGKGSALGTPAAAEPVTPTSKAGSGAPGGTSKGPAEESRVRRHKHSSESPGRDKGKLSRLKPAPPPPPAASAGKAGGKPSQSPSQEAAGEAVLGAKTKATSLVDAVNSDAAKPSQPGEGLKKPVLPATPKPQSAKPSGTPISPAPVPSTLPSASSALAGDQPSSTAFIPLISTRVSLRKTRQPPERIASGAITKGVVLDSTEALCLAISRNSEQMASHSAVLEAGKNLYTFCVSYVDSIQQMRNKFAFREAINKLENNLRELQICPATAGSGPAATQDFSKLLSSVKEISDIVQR
Sequence of UniProt Q9H3Y6 (whole entry, looked up): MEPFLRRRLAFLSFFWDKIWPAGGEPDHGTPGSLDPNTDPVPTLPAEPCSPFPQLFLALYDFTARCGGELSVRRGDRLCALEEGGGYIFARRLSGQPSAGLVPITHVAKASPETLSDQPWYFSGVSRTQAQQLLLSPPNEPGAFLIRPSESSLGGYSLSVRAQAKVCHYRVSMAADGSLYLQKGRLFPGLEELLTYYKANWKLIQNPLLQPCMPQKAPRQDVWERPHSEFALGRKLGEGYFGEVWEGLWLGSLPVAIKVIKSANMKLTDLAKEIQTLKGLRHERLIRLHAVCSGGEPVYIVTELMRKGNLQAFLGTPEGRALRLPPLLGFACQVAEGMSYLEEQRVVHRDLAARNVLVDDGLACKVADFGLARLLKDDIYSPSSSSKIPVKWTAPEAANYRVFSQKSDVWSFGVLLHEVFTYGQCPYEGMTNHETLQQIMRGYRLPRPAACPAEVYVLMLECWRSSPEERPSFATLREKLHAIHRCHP
Sequence of UniProt P54764 (whole entry, looked up): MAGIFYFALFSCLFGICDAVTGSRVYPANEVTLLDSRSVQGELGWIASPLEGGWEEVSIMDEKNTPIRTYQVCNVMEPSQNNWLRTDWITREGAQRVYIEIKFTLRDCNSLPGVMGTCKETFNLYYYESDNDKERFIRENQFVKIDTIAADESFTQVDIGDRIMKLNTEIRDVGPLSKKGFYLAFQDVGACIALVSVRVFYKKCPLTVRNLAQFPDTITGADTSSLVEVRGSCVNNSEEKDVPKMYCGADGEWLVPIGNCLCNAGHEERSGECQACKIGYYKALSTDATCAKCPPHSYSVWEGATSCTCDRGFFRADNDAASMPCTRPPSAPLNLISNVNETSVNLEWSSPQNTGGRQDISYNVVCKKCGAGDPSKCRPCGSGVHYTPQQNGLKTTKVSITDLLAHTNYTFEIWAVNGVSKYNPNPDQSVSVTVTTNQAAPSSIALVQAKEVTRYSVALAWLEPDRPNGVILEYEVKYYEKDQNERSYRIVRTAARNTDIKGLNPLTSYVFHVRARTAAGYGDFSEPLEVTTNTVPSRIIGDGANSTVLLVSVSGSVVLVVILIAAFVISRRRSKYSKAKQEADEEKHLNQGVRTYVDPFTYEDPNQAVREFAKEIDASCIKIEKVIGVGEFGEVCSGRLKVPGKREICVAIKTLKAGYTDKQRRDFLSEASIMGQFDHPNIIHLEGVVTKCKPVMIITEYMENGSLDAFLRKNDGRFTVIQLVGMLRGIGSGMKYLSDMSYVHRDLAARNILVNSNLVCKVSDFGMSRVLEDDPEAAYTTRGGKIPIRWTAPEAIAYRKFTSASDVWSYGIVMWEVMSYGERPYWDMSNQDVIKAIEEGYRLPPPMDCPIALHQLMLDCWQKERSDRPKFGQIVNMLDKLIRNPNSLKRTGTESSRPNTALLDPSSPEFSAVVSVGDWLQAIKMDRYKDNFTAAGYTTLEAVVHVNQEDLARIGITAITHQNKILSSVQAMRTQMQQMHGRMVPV
Sequence of UniProt Q9UK32 (whole entry, looked up): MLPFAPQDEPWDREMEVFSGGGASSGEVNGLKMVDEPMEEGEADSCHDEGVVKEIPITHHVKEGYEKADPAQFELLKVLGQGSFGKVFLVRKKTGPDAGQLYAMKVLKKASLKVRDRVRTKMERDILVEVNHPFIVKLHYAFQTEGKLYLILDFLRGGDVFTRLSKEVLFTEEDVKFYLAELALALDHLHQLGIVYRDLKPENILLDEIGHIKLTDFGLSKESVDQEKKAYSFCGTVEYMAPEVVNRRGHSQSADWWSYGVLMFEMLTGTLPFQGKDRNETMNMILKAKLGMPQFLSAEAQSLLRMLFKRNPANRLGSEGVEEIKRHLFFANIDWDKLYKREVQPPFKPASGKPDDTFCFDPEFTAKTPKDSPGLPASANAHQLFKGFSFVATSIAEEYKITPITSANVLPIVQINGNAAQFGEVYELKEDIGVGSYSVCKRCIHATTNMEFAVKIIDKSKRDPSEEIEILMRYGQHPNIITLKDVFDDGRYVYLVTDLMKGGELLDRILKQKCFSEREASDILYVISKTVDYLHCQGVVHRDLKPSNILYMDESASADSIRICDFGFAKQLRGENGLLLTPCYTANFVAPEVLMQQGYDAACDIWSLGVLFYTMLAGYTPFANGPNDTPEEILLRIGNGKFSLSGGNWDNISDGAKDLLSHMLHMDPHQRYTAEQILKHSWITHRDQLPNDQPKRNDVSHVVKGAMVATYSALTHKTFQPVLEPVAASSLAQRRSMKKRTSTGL
Sequence of UniProt O43603 (whole entry, looked up): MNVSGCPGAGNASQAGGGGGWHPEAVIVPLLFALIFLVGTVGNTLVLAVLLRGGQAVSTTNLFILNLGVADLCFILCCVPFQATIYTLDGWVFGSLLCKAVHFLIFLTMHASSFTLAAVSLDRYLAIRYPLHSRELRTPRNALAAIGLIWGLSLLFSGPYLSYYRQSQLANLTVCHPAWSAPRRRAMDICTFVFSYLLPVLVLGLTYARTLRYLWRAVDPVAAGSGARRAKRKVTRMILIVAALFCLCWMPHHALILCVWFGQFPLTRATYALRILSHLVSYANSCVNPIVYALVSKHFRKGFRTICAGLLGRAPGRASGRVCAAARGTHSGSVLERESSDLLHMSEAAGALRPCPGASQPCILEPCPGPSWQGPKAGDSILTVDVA
Sequence of UniProt Q6NV75 (whole entry, looked up): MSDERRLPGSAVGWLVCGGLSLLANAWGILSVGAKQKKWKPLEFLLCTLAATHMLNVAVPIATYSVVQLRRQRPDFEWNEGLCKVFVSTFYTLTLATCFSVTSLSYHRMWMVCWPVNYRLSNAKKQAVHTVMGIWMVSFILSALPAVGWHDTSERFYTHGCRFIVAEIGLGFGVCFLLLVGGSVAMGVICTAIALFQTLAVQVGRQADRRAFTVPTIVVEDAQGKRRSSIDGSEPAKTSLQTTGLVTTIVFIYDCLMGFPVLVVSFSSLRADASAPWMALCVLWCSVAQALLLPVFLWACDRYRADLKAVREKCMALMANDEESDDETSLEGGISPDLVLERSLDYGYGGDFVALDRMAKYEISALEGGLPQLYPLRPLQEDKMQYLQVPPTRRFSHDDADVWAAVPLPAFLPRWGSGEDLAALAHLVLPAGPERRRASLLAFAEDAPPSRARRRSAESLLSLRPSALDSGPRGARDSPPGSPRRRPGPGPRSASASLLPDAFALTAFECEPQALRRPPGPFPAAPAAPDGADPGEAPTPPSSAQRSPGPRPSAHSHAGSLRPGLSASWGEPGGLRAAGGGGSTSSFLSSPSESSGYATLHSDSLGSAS

Set 1
Target: Calcium/calmodulin-dependent protein kinase type II subunit alpha (CAMK2A, Homo sapiens, UniProt Q9UQM7)
Sequence of UniProt Q9UQM7 (whole entry, looked up): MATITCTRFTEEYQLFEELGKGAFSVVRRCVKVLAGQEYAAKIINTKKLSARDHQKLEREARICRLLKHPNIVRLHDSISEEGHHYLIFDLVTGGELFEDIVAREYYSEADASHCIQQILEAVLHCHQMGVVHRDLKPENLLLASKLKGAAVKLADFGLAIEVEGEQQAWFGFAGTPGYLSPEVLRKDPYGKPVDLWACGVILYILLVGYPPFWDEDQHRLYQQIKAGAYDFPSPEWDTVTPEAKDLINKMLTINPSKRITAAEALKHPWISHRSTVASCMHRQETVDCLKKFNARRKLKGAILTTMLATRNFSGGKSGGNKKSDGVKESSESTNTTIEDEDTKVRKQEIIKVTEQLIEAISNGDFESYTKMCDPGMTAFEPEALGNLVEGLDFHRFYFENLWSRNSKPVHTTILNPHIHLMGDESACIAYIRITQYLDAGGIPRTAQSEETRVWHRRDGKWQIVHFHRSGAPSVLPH
Read-out: enzyme activity
Mode: inhibitor
Concentration: 10 µM
Measurement: inhibition
CC1(C)CCCC2(C)OC(=O)C=C12 (racemic): 26%
CCCCCCCC/C=C\CCCCCCCC(=O)OC[C@H](COP(=O)(O)O)OC(=O)CCCCCCC/C=C\CCCCCCCC: 30%
CCCN[C@@H]1CCc2nc(N)sc2C1: 7%
CCCCCCCCCC(C)O (stereo not shown): -13%
CC(C)=CCc1c(O)ccc(C(=O)/C=C/c2ccc(O)cc2)c1O: 46%
O=C(O)[C@H]1CC[C@H](O)CC1: -111%
Cc1cncc(CN2CCC(=C3c4ccc(Cl)cc4CCc4cccnc43)CC2)c1: -8%
CC(=O)N1C[C@H](O)C[C@H]1C(=O)O: 13%
CCC(C)(C)C(=O)O[C@H]1C[C@@H](C)C=C2C=C[C@H](C)[C@H](CC[C@@H](O)C[C@@H](O)CC(=O)O)[C@H]21: -6%
COc1c2ccoc2c(OCC=C(C)C)c2oc(=O)ccc12: -4%
CC(=O)N[C@@H](CC(C)C)C(=O)N[C@@H](CC(C)C)C(=O)N[C@H](C=O)CCCN=C(N)N: 4%
O=C(/C=C/c1ccc(O)c(O)c1)O[C@@H]1C[C@@](O)(C(=O)O)C[C@@H](O)[C@@H]1O: -3%
COc1ccc2[nH]cc(CC(=O)O)c2c1: 9%

Set 2
Structure (SMILES): COCCOc1nc(-c2ccc(Cl)nc2)nc2c1CN(C(=O)c1ncn3ccccc13)CC2
Concentration: 0.1 µM
Measurement: remaining binding
CAMK2D (Homo sapiens, UniProt Q13557); cell-free assay, competition with immobilised ligand: 100%
DMPK (Homo sapiens, UniProt Q09013); cell-free assay, competition with immobilised ligand: 72%
MELK (Homo sapiens, UniProt Q14680); cell-free assay, competition with immobilised ligand: 65%
CDK18 (Homo sapiens, UniProt Q07002); cell-free assay, competition with immobilised ligand: 100%
PRKAA2 (Homo sapiens, UniProt P54646); cell-free assay, competition with immobilised ligand: 100%
SIK1 (Homo sapiens, UniProt P57059); competition binding: 100%
ERBB2 (Homo sapiens, UniProt P04626); cell-free assay, competition with immobilised ligand: 82%
MAPK1 (Homo sapiens, UniProt P28482); cell-free assay, competition with immobilised ligand: 95%
CSNK1E (Homo sapiens, UniProt P49674); cell-free assay, competition with immobilised ligand: 100%
WEE1 (Homo sapiens, UniProt P30291); cell-free assay, competition with immobilised ligand: 100%
Tyrosine-protein kinase ABL1, phosphorylated (ABL1, Homo sapiens, UniProt P00519, F317I); binding: 100%
STK32A (Homo sapiens, UniProt Q8WU08); cell-free assay, competition with immobilised ligand: 83%
PRKCI (Homo sapiens, UniProt P41743); cell-free assay, competition with immobilised ligand: 100%
SRMS (Homo sapiens, UniProt Q9H3Y6); cell-free assay, competition with immobilised ligand: 100%
IRAK3 (Homo sapiens, UniProt Q9Y616); cell-free assay, competition with immobilised ligand: 100%
Tyrosine-protein kinase ABL1, non-phosphorylated (ABL1, Homo sapiens, UniProt P00519, F317L); cell-free assay, competition with immobilised ligand: 100%
MAP2K7 (Homo sapiens, UniProt O14733); cell-free assay, competition with immobilised ligand: 95%
EPHA4 (Homo sapiens, UniProt P54764); cell-free assay, competition with immobilised ligand: 100%
CASK (Homo sapiens, UniProt O14936); cell-free assay, competition with immobilised ligand: 95%
MAP4K2 (Homo sapiens, UniProt Q12851); cell-free assay, competition with immobilised ligand: 100%
CSNK1D (Homo sapiens, UniProt P48730); cell-free assay, competition with immobilised ligand: 84%

Set 3
Compound: CC(C)CN(C)c1nc(N)c(C(=O)N=C(N)N)nc1Cl
Read-out: β-arrestin recruitment
Mode: agonist
Method: PRESTO-Tango
Concentration: 10 µM
Reference: untreated
Measurement: fold over basal
PTGER2 (Homo sapiens, UniProt P43116): 0.45
GRM8 (Homo sapiens, UniProt O00222): 0.65 fold
GALR2 (Homo sapiens, UniProt O43603): 0.42 fold
G-protein coupled receptor 171 (GPR171, Homo sapiens, UniProt O14626): 0.91
Probable G-protein coupled receptor 153 (GPR153, Homo sapiens, UniProt Q6NV75): 0.65
HRH2 (Homo sapiens, UniProt P25021): 1.59 fold
GPER1 (Homo sapiens, UniProt Q99527): 0.68
PTGDR (Homo sapiens, UniProt Q13258): 0.94
F2RL1 (Homo sapiens, UniProt P55085): 1.24
P2Y purinoceptor 4 (P2RY4, Homo sapiens, UniProt P51582): 0.88
CXCR5 (Homo sapiens, UniProt P32302): 0.84
CMKLR2 (Homo sapiens, UniProt P46091): 0.79
Opsin-5 (OPN5, Homo sapiens, UniProt Q6U736): 1.14

Set 4
SMILES: CCN1/C(=C/C(C)=O)Sc2ccc(OC)cc21
Read-out: enzyme activity
Mode: inhibitor
Concentration: 0.5 µM
Reference: control
Measurement: remaining activity
Cyclin-dependent kinase 1, with cyclin B (CDK1, Homo sapiens, UniProt P06493): 93.2%
Cyclin-dependent kinase 6, with cyclin D3 (CDK6, Homo sapiens, UniProt Q00534): 104%
AXL (Homo sapiens, UniProt P30530): 105%
EPHB1 (Homo sapiens, UniProt P54762): 90.6%
SRMS (Homo sapiens, UniProt Q9H3Y6): 84.7%
STK17A (Homo sapiens, UniProt Q9UEE5): 99.3%
BLK (Homo sapiens, UniProt P51451): 95.4%
HIPK4 (Homo sapiens, UniProt Q8NE63): 94%
STK16 (Homo sapiens, UniProt O75716): 87.4%
PHKG1 (Homo sapiens, UniProt Q16816): 89.5%
MAP4K4 (Homo sapiens, UniProt O95819): 83.2%
WNK3 (Homo sapiens, UniProt Q9BYP7): 88.1%
CAMK2B (Homo sapiens, UniProt Q13554): 102%
PDPK1 (Homo sapiens, UniProt O15530): 97.5%
DYRK3 (Homo sapiens, UniProt O43781): 50.4%
HIPK2 (Homo sapiens, UniProt Q9H2X6): 100%
EPHB4 (Homo sapiens, UniProt P54760): 92.4%
RPS6KA6 (Homo sapiens, UniProt Q9UK32): 89%
Cyclin-dependent kinase 4, with cyclin D3 (CDK4, Homo sapiens, UniProt P11802): 97.4%
TSSK2 (Homo sapiens, UniProt Q96PF2): 106%
MAPKAPK3 (Homo sapiens, UniProt Q16644): 90.1%
EPHA4 (Homo sapiens, UniProt P54764): 95.5%
RPS6KA5 (Homo sapiens, UniProt O75582): 87.4%
